Assay results of several laboratories.
Numbered parts are unrelated; each lists some results of a single study. Substitutions count along the parent as printed.

Study 1 — target: CCNB2, cyclin fold, Cln2 fusion (human); method: yeast growth competition, sequencing; matrix: yeast; setting: strong parent motif; relative to: not given; direction: higher = stronger binding
Starting sequence: viral docking peptide; YKVKRRLVFGADD; partner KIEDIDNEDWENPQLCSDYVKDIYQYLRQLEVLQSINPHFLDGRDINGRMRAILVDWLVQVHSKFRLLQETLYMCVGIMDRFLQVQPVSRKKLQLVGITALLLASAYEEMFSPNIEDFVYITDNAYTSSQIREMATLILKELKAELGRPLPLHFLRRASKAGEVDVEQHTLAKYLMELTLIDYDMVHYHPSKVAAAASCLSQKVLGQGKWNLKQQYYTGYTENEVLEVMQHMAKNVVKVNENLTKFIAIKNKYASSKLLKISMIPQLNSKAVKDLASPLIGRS
| Substitution | normalised enrichment score |
| --- | --- |
| YKVKRRLVEGADD [F9E] | 0.121 |
| YKVKRRLVFGNDD [A11N] | 1.71 |
| YKVKRRLVFGAYD [D12Y] | 1.21 |
| YKVKRRLVFSADD [G10S] | 1.58 |
| YKVKRRGVFGADD [L7G] | 0.339 |
| YKVKRRLVGGADD [F9G] | 0.561 |
| YKVKRRLVLGADD [F9L] | 0.485 |
| YKVKRRLVFGVDD [A11V] | 1.61 |
| YKVKRRLVFGACD [D12C] | 0.837 |
| YKVKRRLWFGADD [V8W] | 1.3 |
| YKVKARLVFGADD [R5A] | 0.441 |
| YKVKRRLLFGADD [V8L] | 1.21 |
| YKVKRRLVFGIDD [A11I] | 1.53 |
| YQVKRRLVFGADD [K2Q] | 2.38 |
| YKVTRRLVFGADD [K4T] | 0.297 |
| YKVKRRLVFGYDD [A11Y] | 1.66 |
| YKDKRRLVFGADD [V3D] | 0.648 |
| YKVKRRLVFGQDD [A11Q] | 1.26 |
| YKVKRRLVFNADD [G10N] | 1.79 |
| YKVKCRLVFGADD [R5C] | 0.918 |
| YKVKNRLVFGADD [R5N] | 0.135 |
| YKVARRLVFGADD [K4A] | 0.411 |
| YKVKRRLVFGKDD [A11K] | 1.3 |
| YKVKKRLVFGADD [R5K] | 0.908 |
| YKVKRRVVFGADD [L7V] | 0.255 |

Study 2 — method: RNA Bind-n-Seq; form: RNA; matrix: in vitro; concentration: 365 nM; relative to: no-protein control; direction: higher = stronger binding
Target: RNA binding protein fox-1 homolog 2, RRM domain, GST-SBP tag (RBFOX2, Homo sapiens, UniProt O43251-10, residues 100-194)
Setting: natural RNA segment, single round, ends assumed
Constant ends, left off below: GGGAGUUCUACAGUCCGACGAUC … UGGAAUUCUCGGGUGCCAA
| Sequence | RBNS enrichment (R) |
| --- | --- |
| GGCAUUCUGGUGCACUAACUUGUGCACACACCAGCUCCAGCCUUUGCAGAAUGACAGCUCUUUGUUUCUGAAGUAACCAGCACACCACACUCAUGUUUAAAAGGACAAAG | 0.372 |
| GUUUAAUAAUAAGAAAAAGGCCAUUUCAUUUUAAAUUGUGACCUAUAAUUCUUUGUCUUGGGUUGGUAAUUCAGGAUUCAUUUGGAAAGUGGGUAAAAGGGGCUUCAAAA | 0.82 |
| AUGCCGACUCUGCUCUGUGUUAGAGAUAUGAAAUGGUGUUUGAUACUGUUUGAGACAUUAUGGAGAGAUUUAAUUAUUUGUAAUAAAAGAUUUGCUGCAGUCUGAAAACU | 0.443 |
| GCCAGUAGGCAUUCUGUACCAACUUCUAAUAGAAAUGAGGCAAGGACAAACUUGGAUCAAGAGGACCCAUUUGGGUGAGGGACCAGGUGGUUUCCAAUCCAGUGUGGACA | 0.491 |
| AUUGAUUAUUACUGGCAAAAACGGCCAGGUACAACACCUUUUUCAUACAAGGCCCAGGAGGCUUAGUCCAGUCUGUGCUCCUGGGCUACAAGGACCCAGCCUGAGAUGGU | 0.567 |
| UCCACACACACACACACCCCUCUUGCCCAGGUGGCCUCUUGUCCUCUGCUCUUGACUCUGCCAGCCCUGAUUUUCUGGGCUGGGCUCACUGGCUCUCAAUGCCACCUUCG | 0.562 |
| GACAGAGACUUGACUUGAUCCUCUGAGCUCAAGCUAUUGAGCUGGUAGUGGCAGAGGACUGAGGGUACCUGCACAGUUUGAUUCUUUUCCACGUGUAAGUCUCCAUUGCA | 2.36 |
| GCCCCUCCUCCGUAGUCCUCUCCCUCCGUACAUGCUCCACAGAAAGAAGACCUCUGCUGCCACCUCGGGCUGUGCACUUGGGAUACGGUUGGUUCUCACGCCAUGAGGGA | 0.733 |

Study 3 — method: universal PBM; form: double-stranded DNA, one strand shown; matrix: in vitro; concentration: 600 nM; direction: higher = stronger binding
Target: Sal-like protein 4, full length isoform A (SALL4, Homo sapiens, UniProt Q9UJQ4, residues 1-1053)
Chain of UniProt Q9UJQ4 (whole entry, looked up): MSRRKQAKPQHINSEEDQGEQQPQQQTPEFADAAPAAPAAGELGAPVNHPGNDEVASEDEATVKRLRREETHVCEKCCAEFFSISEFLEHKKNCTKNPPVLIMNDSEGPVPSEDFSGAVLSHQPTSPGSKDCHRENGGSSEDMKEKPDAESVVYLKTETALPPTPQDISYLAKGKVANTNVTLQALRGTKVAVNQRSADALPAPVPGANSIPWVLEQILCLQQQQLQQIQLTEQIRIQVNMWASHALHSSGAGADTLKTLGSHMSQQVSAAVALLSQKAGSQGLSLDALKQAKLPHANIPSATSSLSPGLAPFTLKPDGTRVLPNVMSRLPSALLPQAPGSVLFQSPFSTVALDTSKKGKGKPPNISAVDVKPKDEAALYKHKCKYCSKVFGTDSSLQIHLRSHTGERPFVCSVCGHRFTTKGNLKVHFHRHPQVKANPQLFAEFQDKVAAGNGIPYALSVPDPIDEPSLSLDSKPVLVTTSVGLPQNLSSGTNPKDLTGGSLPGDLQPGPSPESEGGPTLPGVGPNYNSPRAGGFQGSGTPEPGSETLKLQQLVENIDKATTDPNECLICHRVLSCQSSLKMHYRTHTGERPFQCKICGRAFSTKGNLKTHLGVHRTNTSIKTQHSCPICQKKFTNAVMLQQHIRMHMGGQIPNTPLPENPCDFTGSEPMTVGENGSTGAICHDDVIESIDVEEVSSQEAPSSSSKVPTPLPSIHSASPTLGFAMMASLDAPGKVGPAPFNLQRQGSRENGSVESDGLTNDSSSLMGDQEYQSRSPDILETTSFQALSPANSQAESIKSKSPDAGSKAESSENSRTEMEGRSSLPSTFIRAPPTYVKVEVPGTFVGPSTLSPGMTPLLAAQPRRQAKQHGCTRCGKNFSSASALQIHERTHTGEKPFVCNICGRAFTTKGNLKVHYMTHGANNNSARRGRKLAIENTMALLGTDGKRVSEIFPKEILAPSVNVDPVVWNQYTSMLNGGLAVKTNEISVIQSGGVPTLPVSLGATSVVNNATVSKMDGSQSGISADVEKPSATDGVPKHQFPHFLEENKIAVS
Setting: 8-mer, flanks averaged, mean of replicates
| Sequence | E-score |
| --- | --- |
| TCTAGTCA | 0.0586 |
| ACTCCTAA | -0.00126 |
| GTCGACAA | -0.201 |
| GCAACTCA | -0.121 |
| AAGATGTA | 0.218 |
| ATCTAAAC | 0.203 |
| ATAACCAG | 0.267 |
| AATTCGGG | 0.00916 |

Study 4 — method: RNAcompete; form: RNA; matrix: in vitro; concentration: 20 nM; setting: 7-mer, probes averaged, single round; relative to: mean of 7-mers; direction: higher = stronger binding
Target: PABPC1L2, full length, GST fusion (mouse, UniProt A0ABA7IW68)
Construct (chain): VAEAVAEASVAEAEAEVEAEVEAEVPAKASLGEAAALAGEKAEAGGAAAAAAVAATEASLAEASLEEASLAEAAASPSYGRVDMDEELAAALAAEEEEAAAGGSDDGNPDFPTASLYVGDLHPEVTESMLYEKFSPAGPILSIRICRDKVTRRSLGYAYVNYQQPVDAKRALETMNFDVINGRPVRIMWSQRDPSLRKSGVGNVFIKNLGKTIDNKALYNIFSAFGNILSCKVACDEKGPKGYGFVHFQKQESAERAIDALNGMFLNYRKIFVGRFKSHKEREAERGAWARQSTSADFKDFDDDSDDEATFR
| Sequence | 7-mer Z-score |
| --- | --- |
| UCGAUGU | -0.171 |
| AUUGCAG | 0.0877 |
| CACGACC | -0.0808 |
| CAGUCCC | -0.219 |
| CCGUACG | -0.304 |
| CCAUGUC | -0.229 |
| AGAUUUA | -0.0989 |
| AUUCUGU | -0.309 |

Study 5 — read-out: peptide-MHC binding; form: peptide; concentration: concentration not given
Target: HLA class I histocompatibility antigen, A alpha chain, allele A*25:01 (Homo sapiens, UniProt P04439)
| Sequence | binding |
| --- | --- |
| PLFKRGWRL | inactive |
| EKLKKKSAF | inactive |
| KLWTSISCA | inactive |
| FLSFASLFL | inactive |
| SQYDPKELL | inactive |

Study 6 — target: UBE2D3 UBC core domain (UniProt P61077); method: yeast two-hybrid; matrix: yeast; setting: mostly zero background; relative to: not given; direction: higher = stronger interaction
B1: RNF24 RING domain (UniProt Q9Y225); chain KVKELNLHELCAVCLEDFKPRDELGICPCKHAFHRKCLIKWLEVRKVCPLCNMPVLQLAQLH
B2: TRIM48 RING domain (UniProt Q8IWZ4); chain ISQVFQRELTCPICMNYFIDPVTIDCGHSFCRPCFYLNWQDIPILTQCFECIKTIQQRNLKT
Construct (chain): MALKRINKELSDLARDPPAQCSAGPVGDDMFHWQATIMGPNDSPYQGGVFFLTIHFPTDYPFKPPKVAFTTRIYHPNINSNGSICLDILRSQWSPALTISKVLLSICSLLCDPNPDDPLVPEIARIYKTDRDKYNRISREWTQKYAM
| Sequence | lacZ reporter activity |
| --- | --- |
| B1 (RNF24 RING domain) | 0 |
| KLWDINAHITCRLCSGYLIDATTVTECLHTFCRSCLVKYLEENNTCPTCRIVIHQSHPLQ (PCGF3 RING domain (UniProt Q3KNV8)) | 0 |
| B2 (TRIM48 RING domain) | 0 |

Some of these lines once more (study 3):
| Sequence | E-score |
| --- | --- |
| ACTCCTAA | -0.00126 |
| GTCGACAA | -0.201 |
| GCAACTCA | -0.121 |
| AAGATGTA | 0.218 |
